Measured values of several laboratories.
Compare with care: the assays were run in different laboratories. ± marks the error that the study gave.
SNCA pre-formed fibrils: Alpha-synuclein, pre-formed fibrils (SNCA, Homo sapiens, UniProt P37840)
crk3 with CYC6: crk3, with CYC6 (Leishmania mexicana, UniProt O15851)
Urease: Urease (Canavalia ensiformis, UniProt P07374)
DNA polymerase catalytic subunit: DNA polymerase catalytic subunit (Human cytomegalovirus, UniProt P08546)

Compound = CC(C)(C)n1ncc2c(=O)n(Cc3cccc(F)c3)c(NCc3ccc(C(F)(F)F)nc3)nc21; target = Dual specificity calcium/calmodulin-dependent 3',5'-cyclic nucleotide phosphodiesterase 1C (PDE1C, Homo sapiens, UniProt Q14123); test = enzyme activity, inhibitor, radiometric; IC50 = 0.0039 µM
Compound = CN1CCN(C(=O)c2ccc(-c3cc4nccc(-c5ccc6cnccc6c5)c4o3)cc2)CC1; target = Tyrosine-protein kinase SYK (SYK, Homo sapiens, UniProt P43405); test = enzyme activity, inhibitor; IC50 = 0.27 µM
Compound = CC(=O)c1cnc2ccc(-c3cc(Cl)c(O)c(Cl)c3)nc2c1N[C@H]1CC[C@H](CN(C)C)CC1; target = Receptor-like protein kinase FERONIA (FER, Arabidopsis thaliana, UniProt Q9SCZ4, Y612A); test = kinase activity, inhibitor, ADP-Glo; setting = 60 min, together with: 50 µM ATP; IC50 = 1.44 µM
Compound = CSc1cc(C)[nH]c(=O)c1CNC(=O)c1c(C)n(C(C)C2CCC(NC3(C)COC3)CC2)c2ccccc12 (centres unmarked); target = Histone-lysine N-methyltransferase EZH2, PRC2 pentameric complex (EZH2, Homo sapiens, UniProt Q15910); test = enzyme activity, inhibitor; setting = together with: H3K27me3 activating peptide; IC50 = 0.00011 µM
Compound = CCN(CC)CC(=O)Nc1cccc(-n2cc(-c3ccc4ccc(-c5cn(-c6cccc(NC(=O)CN(CC)CC)c6)nn5)cc4c3)nn2)c1; target = Mitogen-activated protein kinase kinase kinase kinase 4 (MAP4K4, Homo sapiens, UniProt O95819); test = enzyme activity, inhibitor; IC50 = > 10 µM
Compound = CN1CCC(n2cc(-c3cccc4cc(NC(=O)Nc5ccc(C(=O)NO)cc5)ccc34)cn2)CC1; target = SNCA pre-formed fibrils; test = binding to RAGE, inhibitor, ELISA; setting = together with: FLAG-α-syn PFFs 100 nM; IC50 = 1 µM
Compound = CC[C@H](C)[C@H](N)C(=O)NS(=O)(=O)CC(=O)N[C@]1(C(=O)O)[C@@H]2CN(C)C=C(C(N)=O)[C@@H]2C[C@@H]1O; target = Carbonic anhydrase 1 (CA1, Homo sapiens, UniProt P00915); test = enzyme activity, inhibitor, absorbance; IC50 = 2 µM
Compound = COc1ccc(N2CCN(Cc3cn4c(-c5ccc(Br)cc5)nnc4s3)CC2)cc1; target = Aifm2 (Mus musculus, UniProt Q8BUE4, A354T/L360F); test = enzyme activity, inhibitor; setting = 1 h, together with: CoQ1, NADPH; IC50 = 0.552 µM
Compound = CC(=O)Nc1cc(-c2c(F)cccc2F)[nH]n1; target = crk3 with CYC6; test = enzyme activity, inhibitor, radiometric; setting = together with: Leishmania major CYC6 cyclin, 1 µM ATP; IC50 = 9 µM
Compound = CC(=O)N[C@H]1[C@H]([C@H](O)[C@H](O)CNC(=O)c2ccc(-c3ccccc3)cc2)O[C@@](OCc2cccc(Cl)c2Cl)(C(=O)O)C[C@@H]1O; target = B-cell receptor CD22 (CD22, Homo sapiens, UniProt P20273); test = ligand binding, inhibitor, competitive bead binding flow cytometry; setting = together with: 6'SLN(Gc)-PAA-biotin beads; IC50 = 1.24 ± 0.13 µM
Compound = Cc1ccc(N=C2CC(=O)c3sc(C)nc3C2=O)cc1; target = Histone-lysine N-methyltransferase SETD2 (SETD2, Homo sapiens, UniProt Q9BYW2); test = enzyme activity, inhibitor; IC50 = 2.3 µM
Compound = CC(C)C[C@H](NC(=O)[C@H](Cc1ccc(CN)cc1)NC(=O)[C@H](Cc1ccccc1)N=[N+]=[N-])C(=O)N[C@H](C(=O)[C@@]1(C)CO1)C1CCCCC1; target = Proteasome subunit beta type-10 (Homo sapiens, UniProt P40306); test = enzyme activity, inhibitor; setting = lysate; IC50 = 4.79 µM
Compound = CSC(=S)N/N=C(\C)c1ccc(Nc2nnc(-c3ccc(Cl)cc3)c3ccccc23)cc1; target = Vascular endothelial growth factor receptor 2 (KDR, Homo sapiens, UniProt P35968); test = cell-free assay, inhibitor; IC50 = 0.892 µM
Compound = CC(C)(COC(=O)/C=C/c1ccc(Cl)c(Cl)c1)CC1=C(O)C(=O)c2ccccc2C1=O; target = Alpha-glucosidase MAL12 (MAL12, Saccharomyces cerevisiae S288c, UniProt P53341); test = enzyme activity, inhibitor; IC50 = 10 µM
Compound = C1=Cc2ccccc2N(Cc2cc(-c3ccccc3)no2)c2ccccc21; target = Urease; test = enzyme activity, inhibitor; IC50 = > 27 µM
Compound = CN1CCCN(c2cnc3c(cc(C(=O)NCc4ccc(Cl)cc4)c(=O)n3CC(=O)N3CC(C)(F)C3)n2)C1=O; target = DNA polymerase catalytic subunit; test = enzyme activity; setting = retest; IC50 = 5.25 µM
Compound = COc1cc(O)c2c(c1)CCC21CCC(=O)CC1; target = rat intestinal maltase; test = inhibitor; system = rat intestinal acetone powder; setting = 10 min, 37 °C, together with: maltose 10 mM; IC50 = 1350 ± 170 µM
Compound = Fc1cccc(-c2cc(CN3c4ccccc4C=Cc4ccccc43)on2)c1; target = Urease; test = enzyme activity, inhibitor; IC50 = 9.17 µM
Compound = CCn1nc(Cl)c2c1-c1cnc(N)c(c1)O[C@H](C)c1cc(F)ccc1-c1nn(C)cc1C2; target = Tyrosine-protein kinase Fer (FER, Homo sapiens, UniProt P16591); test = enzyme activity, inhibitor, radiometric; IC50 = 0.058 µM
Compound = Fc1ccc(Nc2nc(NC3CCCCC3)c3cc(Br)ccc3n2)cc1F; target = Beta-2 adrenergic receptor (ADRB2, Homo sapiens, UniProt P07550, F133L); test = β-arrestin2 recruitment, antagonist, BRET; system = HEK293; setting = mutant F133L, together with: isoprenaline 1 µM; IC50 = 0.501 µM
Compound = O=C(Nc1cc(-c2ccc(Cl)cc2)[nH]n1)c1cccs1; target = crk3 with CYC6; test = enzyme activity, inhibitor, radiometric; setting = together with: Leishmania major CYC6 cyclin, 1 µM ATP; IC50 = 1.2 µM
Compound = [C-]#[N+]CCCCCCOc1ccc2c(-c3ccccc3C(=O)OCC)c3ccc(=O)cc-3oc2c1; target = Polyunsaturated fatty acid lipoxygenase ALOX15 (ALOX15, Homo sapiens, UniProt P16050); test = enzyme activity, inhibitor, absorbance; IC50 = 29.3 µM
Compound = CCN1/C(=C/C(C)=O)Sc2ccc(F)cc21; target = Alpha-2B adrenergic receptor (ADRA2B, Homo sapiens, UniProt P18089); test = ligand displacement, radioligand; IC50 = 1.4 µM
Compound = N=C(c1ccc([N+](=O)[O-])o1)N1CCC(NC(=O)c2cc(-c3ccc(F)cc3F)on2)(c2nc3ccccc3[nH]2)CC1; target = Stimulator of interferon genes protein (STING1, Homo sapiens, UniProt Q86WV6, H232R); test = reporter gene; IC50 = 1.52 µM
Compound = CN(C)c1ccc(-c2cc(CN3c4ccccc4C=Cc4ccccc43)on2)cc1Cl; target = Urease; test = enzyme activity, inhibitor; IC50 = > 27 µM
Compound = CN1CCN(c2cccc3cc(NC(=O)Nc4cccc(C(=O)NO)c4)ccc23)CC1; target = SNCA pre-formed fibrils; test = binding to mouse LAG3 D1, inhibitor, ELISA; setting = together with: FLAG-α-syn PFFs 100 nM; IC50 = 1.3 µM
Compound = Cc1cc(C)nc(NC(=S)N2CCN(Cc3ccc(C(F)(F)F)cc3)CC2)c1; target = Peroxisomal multifunctional enzyme type 2 (HSD17B4, Homo sapiens, UniProt P51659); test = enzyme activity, inhibitor; IC50 = > 57 µM
Compound = CCOc1cc(CN2CC3(CC(N4CCC(C(=O)O)CC4)=NO3)C2)cc(OCC)c1-c1ccc(F)cc1; target = Somatostatin receptor type 5 (SSTR5, Homo sapiens, UniProt P35346, F201A); test = cAMP level, antagonist, GloSensor; system = AD293; setting = F201A mutant, bandwidth 5.38, together with: CST17 EC80 and forskolin; IC50 = 1.05 µM
Compound = O=[N+]([O-])c1cccc(-c2cc(CN3c4ccccc4C=Cc4ccccc43)on2)c1; target = Urease; test = enzyme activity, inhibitor; IC50 = > 27 µM
Compound = COc1cc(OC)c(/N=N/c2cc(C(=O)NO)ccc2OC)c(OC)c1; target = Urease; test = enzyme activity, inhibitor, absorbance; setting = pH 7.3; IC50 = > 512 µM
Compound = COc1ccc(Nc2cc(NC3CC3)n3ncc(C#N)c3n2)cc1; target = Serine/threonine-protein kinase Sgk1 (SGK1, Homo sapiens, UniProt O00141); test = inhibitor; IC50 = 3.6 µM
Compound = COc1cc(OC)c2c(=O)cc(-c3cc(C)c(OCCCN4CCN(C)CC4)c(C)c3)oc2c1; target = Bromodomain testis-specific protein, BD1 (BRDT, Homo sapiens, UniProt Q58F21); test = cell-free assay, TR-FRET; IC50 = 2.32 µM
Compound = CC(C)(C)c1ccc(NC(=O)c2cnn(-c3ccc([N+](=O)[O-])cc3)c2C(F)(F)F)cc1; target = Prostaglandin G/H synthase 1 (PTGS1, Ovis aries, UniProt P05979); test = enzyme activity, inhibitor; IC50 = 6.62 µM
Compound = C[C@H]1[C@@H](O)O[C@@H]2O[C@@]3(C)CC[C@H]4[C@H](C)CC[C@@H]1[C@@]24OO3; target = Bcl-2-like protein 1 (BCL2L1, Homo sapiens, UniProt Q07817); test = binding, displacement, fluorescence polarization; setting = together with: labelled Bid BH3 peptide; IC50 = > 200 µM
Compound = COc1c(Cl)cccc1Nc1c(-c2ccncc2C#C[C@@]2(C)CCCN2C(=O)/C=C/CN(C)C)[nH]c2c1C(=O)NCC2; target = Mitogen-activated protein kinase 8 (MAPK8, Homo sapiens, UniProt P45983); IC50 = > 3 µM
Compound = CC(=O)N(C)CCN1CCN(c2cnc3c(cc(C(=O)NCc4ccc(Cl)cc4)c(=O)n3CC(=O)N3CC(C)(F)C3)n2)C1=O; target = DNA polymerase catalytic subunit; test = enzyme activity, inhibitor; IC50 = 0.839 µM
Compound = CC(C)n1c(N(C)C)nc2c1c(=O)[nH]c(=O)n2C; target = Tyrosine-protein kinase SYK, tandem SH2 domains (SYK, Homo sapiens, UniProt P43405); test = binding, inhibitor, TR-FRET; setting = together with: FITC-FCER1G phospho-ITAM peptide; IC50 = > 100 µM
Compound = COc1ccc2c(c1)CN(C(=O)CCN1CCC(Cc3ccccc3)CC1)CCS2; target = Potassium voltage-gated channel subfamily KQT member 1, with KCNE1 (KCNQ1, Homo sapiens, UniProt P51787); test = IKs current, inhibitor, whole-cell patch clamp; system = stable cell line; IC50 = 28.1 µM

For quick reference, copied from above:
Compound = CC(C)(COC(=O)/C=C/c1ccc(Cl)c(Cl)c1)CC1=C(O)C(=O)c2ccccc2C1=O; target = Alpha-glucosidase MAL12 (MAL12, Saccharomyces cerevisiae S288c, UniProt P53341); test = enzyme activity, inhibitor; IC50 = 10 µM
Compound = COc1cc(O)c2c(c1)CCC21CCC(=O)CC1; target = rat intestinal maltase; test = inhibitor; system = rat intestinal acetone powder; setting = 10 min, 37 °C, together with: maltose 10 mM; IC50 = 1350 ± 170 µM
Compound = CC(=O)N[C@H]1[C@H]([C@H](O)[C@H](O)CNC(=O)c2ccc(-c3ccccc3)cc2)O[C@@](OCc2cccc(Cl)c2Cl)(C(=O)O)C[C@@H]1O; target = B-cell receptor CD22 (CD22, Homo sapiens, UniProt P20273); test = ligand binding, inhibitor, competitive bead binding flow cytometry; setting = together with: 6'SLN(Gc)-PAA-biotin beads; IC50 = 1.24 ± 0.13 µM
Compound = CC(=O)Nc1cc(-c2c(F)cccc2F)[nH]n1; target = crk3 with CYC6; test = enzyme activity, inhibitor, radiometric; setting = together with: Leishmania major CYC6 cyclin, 1 µM ATP; IC50 = 9 µM
Compound = CC(=O)N(C)CCN1CCN(c2cnc3c(cc(C(=O)NCc4ccc(Cl)cc4)c(=O)n3CC(=O)N3CC(C)(F)C3)n2)C1=O; target = DNA polymerase catalytic subunit; test = enzyme activity, inhibitor; IC50 = 0.839 µM
